Measurements gathered from unrelated publications.
Lines come from different studies, so protocols differ. “And” joins repeats or separate records; there may be more than shown. ± marks the error that the study gave.

| SMILES | test | test system | conditions | half-life |
| --- | --- | --- | --- | --- |
| CCc1cc2c(cc1N1CCC(N3CCOCC3)CC1)C(C)(C)c1[nH]c3cc(C#N)ccc3c1C2=O | – | severe hepatic impairment patients, plasma, total | oral, 300 mg single dose, fed | 40.4 h |
| O=C(NO)c1cc(F)cc(OS(=O)(=O)Oc2ccccc2)c1 | – | buffer with or without glutathione | 50 µM, pH 7.4, 37 °C, with: glutathione 2 mM | > 20 h |
| CC[C@H](C)[C@H](N)C(=O)OC[C@H]1O[C@@H](n2cc(F)c(=O)[nH]c2=O)C[C@@H]1O | – | human pancreas homogenate | pH 7.4, 37 °C, protein 500 µg/mL | 1.1 ± 0.12 h |
| COc1ccc2[nH]c([S+]([O-])Cc3ncc(C)c(OC)c3C)nc2c1 (stereo not drawn) | – | healthy Chinese, CYP2C19 poor metabolizers, plasma | oral, 20 mg single dose | 2.52 ± 0.79 h |
| CCCc1ccc2c(c1)sc(=O)n2CCN1CCCCCC1 | – | rat liver microsomes | 1 µM, pH 7.4, 37 °C, with: NADPH | < 0.0167 h |
| Cc1ccc(N(C)C(=O)[C@H](Cc2ccccc2)NC(=O)CNC(=O)c2ccccc2)cc1 | – | mouse liver microsomes | 1 µM, pH 7.4, with: cobicistat 0.5 µM | 0.567 h |
| CC(C)(c1ccc(O)cc1)c1ccc(O)cc1 | GC-MS | exposure tank water | 5000 ng/L, 27 °C | 3.25 h |
| O=C(CCCCCCC(=O)Nc1ccccc1)NO | LC-MS/MS | human, serum | oral, 600 mg twice daily | 2.2 h and 2.3 h |
| N=C(Nc1ccc(OCCCCCCCCCCn2ccnc2)cc1)c1ccccn1 | LC-MS | human liver microsomes | 3 µM | 0.867 to 1.13 h |
| O=C(C1CC1)n1cc2c(n1)CCC(Br)(Br)C2=O | – | aqueous buffer | spontaneous hydrolysis | 4 h |
| C[C@]12C=CC(=O)C=C1CC[C@@H]1[C@@H]2[C@@H](O)C[C@@]2(C)[C@H]1C[C@H]1O[C@@H](C3CCCCC3)O[C@]12C(=O)CO | – | children with asthma, serum | inhaled, 160 µg ciclesonide, day 7, HFA-MDI without spacer | 3.02 ± 0.21 h |
| CC(C)[C@H](N)C(=O)N[C@@H](Cc1ccccc1)C(=O)OC[C@H]1O[C@@H](n2cc(F)c(=O)[nH]c2=O)C[C@@H]1O | – | human pancreas homogenate | pH 7.4, 37 °C, protein 500 µg/mL | 0.895 ± 0.08 h |
| Cc1ccc(NC(=O)c2ccc(CN3CCN(C)CC3)cc2)cc1Nc1nccc(-c2cncc(-c3oncc3C)c2)n1 | – | healthy volunteers, plasma | oral, 200 mg once daily, day 1, 7-day dosing, mean | 17.7 h |
| COc1ccc([C@@H]2Sc3ccccc3N(CCN(C)C)C(=O)[C@@H]2OC(C)=O)cc1 | – | whole body | oral, medium dose, depuration phase | 293 h |
| CCOc1cc([C@@H](CS(C)(=O)=O)N2C(=O)c3cccc(NC(C)=O)c3C2=O)ccc1O[C@@H]1O[C@H](C(=O)O)[C@@H](O)[C@H](O)[C@H]1O | – | severe renal impairment patients, plasma | oral, 30 mg of apremilast | 29.7 h |
| N[C@@H](Cc1ccccc1)C(=O)NCC(=O)OC[C@H]1O[C@@H](n2cc(F)c(=O)[nH]c2=O)C[C@@H]1O | – | human pancreas homogenate | pH 7.4, 37 °C, protein 500 µg/mL | 2.38 ± 0.358 h |
| CCOc1ccc(Cc2cc([C@@H]3S[C@H](CO)[C@@H](O)[C@H](O)[C@H]3O)c(OC)cc2C)cc1 | – | Japanese type 2 diabetes patients, plasma | oral, 5 mg single dose, eGFR ≥90 mL/min/1.73 m^2 | 10.4 ± 0.832 h |
| Nc1nc(NC2CC2)c2ncn([C@H]3C=C[C@@H](CO)C3)c2n1 | – | HIV-infected children and adolescents, plasma | oral, 8 mg/kg | 1.3 h |
| O=C(CCc1ccccc1)N[C@H]1COC1=O | – | phosphate buffer, 10% MeCN | 1 µM, pH 5.0, 37 °C | 0.75 h |
| [2H]c1c(C([2H])([2H])[2H])cn2c(C(=O)NC([2H])([2H])c3ccc(C(F)(F)F)cc3)c(C([2H])([2H])[2H])nc2c1[2H] | – | mouse liver microsomes | 2 µM | 0.3 h |
| O=C1[C@@H](O)[C@@H]2OC[C@@H](O2)[C@H]1O | – | sodium acetate buffer | 10 mM, pH 4.0, 70 °C, β-elimination | 11 h |
| COc1cc(OC)c(/C=C/S(=O)(=O)Cc2ccc(OC)c(NCC(=O)O)c2)c(OC)c1 | – | cancer patients, phase I, plasma | oral, 560 mg twice daily, day 1 cycle 1 | 2.42 ± 1.1 h |
| N=C(N)NCCC[C@H](NC(=O)[C@H](CCCNC(=N)N)NC(=O)[C@H](CCCNC(=N)N)NC(=O)[C@H](CCCNC(=N)N)NC(=O)[C@H](CCCNC(=N)N)NC(=O)[C@H](CCCNC(=N)N)NC(=O)[C@H](CCCNC(=N)N)NC(=O)[C@H](CCCNC(=N)N)NC(=O)[C@@H](N)CCCNC(=N)N)C(N)=O | – | human serum | 10 µM, 37 °C | 0.0317 h |

| SMILES | test | test system | conditions | half-life |
| --- | --- | --- | --- | --- |
| CN1C(=O)[C@@H](NC(=O)c2nnc(Cc3ccccc3)[nH]2)COc2ccccc21 | – | healthy men, plasma | oral, 60 mg once daily, day 14, geometric mean | 3.97 h |
| C=C(C)[C@@H]1CC[C@]2(NCCN3CCS(=O)(=O)CC3)CC[C@]3(C)[C@H](CC[C@@H]4[C@@]5(C)CC=C(C6=CC[C@@](CF)(C(=O)O)CC6)C(C)(C)[C@@H]5CC[C@]43C)[C@@H]12 | – | healthy adults, plasma | oral, 200 mg once daily, after day 7 dose, with: dolutegravir 50 mg | 23.4 h |
| CC(C)[C@@H](N)C(=O)OC[C@H]1O[C@@H](n2cc(F)c(=O)[nH]c2=O)C[C@@H]1O | – | human small intestine homogenate | pH 7.4, 37 °C, protein 1000 µg/mL | 2.91 ± 1.07 h |
| Cn1cnnc1SCC(=O)C12CC3CC(CC(C3)C1)C2 | metabolic stability | human liver microsomes | – | > 1 h |
| Cc1cn(CC(=O)N[C@@H](Cc2ccccc2)C(=O)N(C)c2ccc(Cl)cc2)c(=O)[nH]c1=O | – | human liver microsomes | 1 µM, pH 7.4, with: cobicistat 0.5 µM | > 2 h |
| O=C(COCc1cccnc1)C12CC3CC(CC(C3)C1)C2 | – | human liver microsomes | 37 °C, with: NADPH | > 2 h |
| COc1ccc2c3c1O[C@H]1C[C@@H](OC(=O)c4ccccc4)C=C[C@@]31CCN(C)C2 | – | healthy elderly men, plasma | intranasal, 22 mg, single dose | 2.64 h |
| CC[C@H](C)[C@H](NC(=O)[C@H](CCC(=O)O)NC(=O)[C@H](CO)NC(=O)[C@@H](NC(=O)[C@@H](N)CO)C(C)C)C(=O)N[C@@H](CCC(N)=O)C(=O)N[C@@H](CC(C)C)C(=O)N[C@@H](CCSC)C(=O)N[C@@H](Cc1cnc[nH]1)C(=O)N[C@@H](CC(N)=O)C(=O)N[C@@H](CC(C)C)C(=O)NCC(=O)N[C@@H](CCCCN)C(=O)N[C@@H](Cc1cnc[nH]1)C(=O)N[C@@H](CC(C)C)C(=O)N[C@@H](CC(N)=O)C(=O)N[C@@H](CO)C(=O)N[C@@H](CCSC)C(=O)N[C@@H](CCC(=O)O)C(=O)N[C@@H](CCCN=C(N)N)C(=O)N[C@H](C(=O)N[C@@H](CCC(=O)O)C(=O)N[C@@H](Cc1c[nH]c2ccccc12)C(=O)N[C@@H](CC(C)C)C(=O)N[C@@H](CCCN=C(N)N)C(=O)N[C@@H](CCCCN)C(=O)N[C@@H](CCCCN)C(=O)N[C@@H](CC(C)C)C(=O)N[C@@H](CCC(N)=O)C(=O)N[C@@H](CC(=O)O)C(=O)N[C@H](C(=O)N[C@@H](Cc1cnc[nH]1)C(=O)N[C@@H](CC(N)=O)C(=O)N[C@@H](Cc1ccccc1)C(=O)O)C(C)C)C(C)C | – | postmenopausal women, osteoporosis, plasma | subcutaneous, 56.5 µg once weekly | 0.957 to 2.06 h |
| CC(C)C[C@H](NC(=O)[C@H](CO)NC(=O)[C@H](CO)NC(=O)[C@H](CC(C)C)NC(=O)[C@@H](NC(=O)[C@@H]1CCCN1C(=O)[C@H](Cc1c[nH]c2ccccc12)NC(=O)[C@H](Cc1ccc(O)cc1)NC(=O)[C@@H]1CCCN1C(=O)[C@H](CC(C)C)NC(=O)[C@H](Cc1ccc(O)cc1)NC(=O)[C@@H](N)CCCCN)C(C)C)C(=O)O | residual EphA4 binding inhibition | PC-3 conditioned medium | 100 µM, 37 °C | 8 to 12 h |
| Nc1cc(F)ccc1NC(=O)c1ccc(CNC(=O)/C=C/c2cccnc2)cc1 | – | Japanese patients, plasma | oral, 30 mg twice weekly, cycle 1 day 25, arithmetic mean | 21.6 h |
| CCCCCCCCC(=O)N[C@H]1CNC1=O | – | PBS, 10% MeCN | 1 µM, pH 7.4, 37 °C | > 24 h |
| CCC(CC)COC(=O)[C@H](C)N[P@](=O)(OC[C@H]1O[C@@](C#N)(c2ccc3c(N)ncnn23)[C@H](O)[C@@H]1O)Oc1ccccc1 | – | human liver microsomes | 1 µM, pH 7.4, with: NADPH, cobicistat | 0.68 h |
| NC(=O)c1cnc2[nH]ccc2c1N[C@@H]1[C@@H]2CC3C[C@H]1C[C@@](O)(C3)C2 | – | Japanese, normal hepatic function, plasma | oral, 150 mg single dose, mean | 10.4 h |
| COc1cc(C(=O)c2nc(-c3ccc(C)c(O)c3)ccc2F)cc(OC)c1OC | – | human liver microsomes | 10 µM, pH 7.4, with: NADPH | ~0.5 h |
| CC#CC(=O)N1CCC[C@H]1c1nc(-c2ccc(C(=O)Nc3ccccn3)cc2)c2c(N)nccn12 | – | Japanese patients, plasma | oral, 100 mg twice daily, day 8, fasting, multiple dose, arithmetic mean | 1.8 h |
| COc1ccc(-n2nc(C(N)=O)c3c2C(=O)N(c2ccc(N4CCCCC4=O)cc2)CC3)cc1 | – | healthy Chinese subjects | oral, 10 mg single and multiple | ~11 h |
| CCN(C(=O)[C@H](Cc1ccccc1)NC(=O)CNC(=O)c1ccccc1)c1ccccc1 | – | mouse liver microsomes | 1 µM, pH 7.4, with: cobicistat 0.5 µM | 0.467 h |
| CNCCC(Oc1ccc(C(F)(F)F)cc1)c1ccccc1 (stereo not drawn) | – | whole body | oral, medium dose, depuration phase | 2190 h |
| CC(C)C[C@H](N)C(=O)OC[C@H]1O[C@@H](n2cc(F)c(=O)[nH]c2=O)C[C@@H]1O | – | human small intestine homogenate | pH 7.4, 37 °C, protein 1000 µg/mL | 0.222 ± 0.0417 h |
| COc1ccc(F)c(CCCC2CCC(CCNCCCCCN3N=C(c4ccc(OC)c(OC)c4)[C@H]4CC=CC[C@H]4C3=O)O2)c1 (stereo partly drawn) | – | human liver microsomes | 40 µM, pH 7.4, 37 °C, with: NADPH | > 1 h |
| CS(=O)(=O)n1cc2c(n1)CN([C@H]1CO[C@H](c3cc(F)ccc3F)[C@@H](N)C1)C2 | – | healthy Japanese men, plasma | oral, 10 mg once weekly, day 15 | 144 h |
| NC(=O)c1cnc2[nH]ccc2c1N[C@@H]1[C@@H]2CC3C[C@H]1C[C@@](O)(C3)C2 | – | healthy Caucasian men, plasma | oral, 200 mg, single dose fasted | 6.9 h |

Some of these lines once more:
| SMILES | test | test system | conditions | half-life |
| --- | --- | --- | --- | --- |
| Cc1cn(CC(=O)N[C@@H](Cc2ccccc2)C(=O)N(C)c2ccc(Cl)cc2)c(=O)[nH]c1=O | – | human liver microsomes | 1 µM, pH 7.4, with: cobicistat 0.5 µM | > 2 h |
| O=C(COCc1cccnc1)C12CC3CC(CC(C3)C1)C2 | – | human liver microsomes | 37 °C, with: NADPH | > 2 h |
| COc1ccc2c3c1O[C@H]1C[C@@H](OC(=O)c4ccccc4)C=C[C@@]31CCN(C)C2 | – | healthy elderly men, plasma | intranasal, 22 mg, single dose | 2.64 h |
| CC[C@H](C)[C@H](NC(=O)[C@H](CCC(=O)O)NC(=O)[C@H](CO)NC(=O)[C@@H](NC(=O)[C@@H](N)CO)C(C)C)C(=O)N[C@@H](CCC(N)=O)C(=O)N[C@@H](CC(C)C)C(=O)N[C@@H](CCSC)C(=O)N[C@@H](Cc1cnc[nH]1)C(=O)N[C@@H](CC(N)=O)C(=O)N[C@@H](CC(C)C)C(=O)NCC(=O)N[C@@H](CCCCN)C(=O)N[C@@H](Cc1cnc[nH]1)C(=O)N[C@@H](CC(C)C)C(=O)N[C@@H](CC(N)=O)C(=O)N[C@@H](CO)C(=O)N[C@@H](CCSC)C(=O)N[C@@H](CCC(=O)O)C(=O)N[C@@H](CCCN=C(N)N)C(=O)N[C@H](C(=O)N[C@@H](CCC(=O)O)C(=O)N[C@@H](Cc1c[nH]c2ccccc12)C(=O)N[C@@H](CC(C)C)C(=O)N[C@@H](CCCN=C(N)N)C(=O)N[C@@H](CCCCN)C(=O)N[C@@H](CCCCN)C(=O)N[C@@H](CC(C)C)C(=O)N[C@@H](CCC(N)=O)C(=O)N[C@@H](CC(=O)O)C(=O)N[C@H](C(=O)N[C@@H](Cc1cnc[nH]1)C(=O)N[C@@H](CC(N)=O)C(=O)N[C@@H](Cc1ccccc1)C(=O)O)C(C)C)C(C)C | – | postmenopausal women, osteoporosis, plasma | subcutaneous, 56.5 µg once weekly | 0.957 to 2.06 h |
| CC(C)C[C@H](NC(=O)[C@H](CO)NC(=O)[C@H](CO)NC(=O)[C@H](CC(C)C)NC(=O)[C@@H](NC(=O)[C@@H]1CCCN1C(=O)[C@H](Cc1c[nH]c2ccccc12)NC(=O)[C@H](Cc1ccc(O)cc1)NC(=O)[C@@H]1CCCN1C(=O)[C@H](CC(C)C)NC(=O)[C@H](Cc1ccc(O)cc1)NC(=O)[C@@H](N)CCCCN)C(C)C)C(=O)O | residual EphA4 binding inhibition | PC-3 conditioned medium | 100 µM, 37 °C | 8 to 12 h |
| Nc1cc(F)ccc1NC(=O)c1ccc(CNC(=O)/C=C/c2cccnc2)cc1 | – | Japanese patients, plasma | oral, 30 mg twice weekly, cycle 1 day 25, arithmetic mean | 21.6 h |
| CCCCCCCCC(=O)N[C@H]1CNC1=O | – | PBS, 10% MeCN | 1 µM, pH 7.4, 37 °C | > 24 h |
